Results collected from several papers.
Every numbered part comes from another study and shows a few of its results, in no order.
UniProt P10721, sequence (whole entry, unmodified, looked up): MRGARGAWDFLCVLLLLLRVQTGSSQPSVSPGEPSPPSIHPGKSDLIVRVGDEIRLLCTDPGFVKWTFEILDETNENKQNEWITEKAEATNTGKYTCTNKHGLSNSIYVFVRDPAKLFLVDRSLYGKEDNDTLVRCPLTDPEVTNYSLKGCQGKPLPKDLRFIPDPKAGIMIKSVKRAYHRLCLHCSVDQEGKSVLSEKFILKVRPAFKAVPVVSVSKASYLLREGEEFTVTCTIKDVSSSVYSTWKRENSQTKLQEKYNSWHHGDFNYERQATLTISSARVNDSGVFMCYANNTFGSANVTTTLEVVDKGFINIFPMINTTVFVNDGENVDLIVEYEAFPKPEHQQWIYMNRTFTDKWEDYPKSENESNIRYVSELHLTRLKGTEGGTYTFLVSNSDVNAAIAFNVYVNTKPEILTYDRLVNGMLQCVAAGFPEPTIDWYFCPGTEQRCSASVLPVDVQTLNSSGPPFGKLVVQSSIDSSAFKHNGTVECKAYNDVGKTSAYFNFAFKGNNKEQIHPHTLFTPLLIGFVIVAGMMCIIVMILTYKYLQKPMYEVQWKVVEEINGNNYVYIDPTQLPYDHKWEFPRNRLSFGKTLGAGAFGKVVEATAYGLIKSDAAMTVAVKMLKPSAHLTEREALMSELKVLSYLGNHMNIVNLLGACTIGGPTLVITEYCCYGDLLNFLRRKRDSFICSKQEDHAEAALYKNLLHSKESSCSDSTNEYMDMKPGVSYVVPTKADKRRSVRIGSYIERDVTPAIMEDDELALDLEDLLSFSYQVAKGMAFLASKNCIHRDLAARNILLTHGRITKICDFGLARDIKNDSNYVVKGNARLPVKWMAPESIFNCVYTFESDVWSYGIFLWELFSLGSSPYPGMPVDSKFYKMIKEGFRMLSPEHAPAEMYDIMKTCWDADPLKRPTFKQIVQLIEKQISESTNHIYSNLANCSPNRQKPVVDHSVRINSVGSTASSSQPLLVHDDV
UniProt Q7Z602, sequence (whole entry, looked up): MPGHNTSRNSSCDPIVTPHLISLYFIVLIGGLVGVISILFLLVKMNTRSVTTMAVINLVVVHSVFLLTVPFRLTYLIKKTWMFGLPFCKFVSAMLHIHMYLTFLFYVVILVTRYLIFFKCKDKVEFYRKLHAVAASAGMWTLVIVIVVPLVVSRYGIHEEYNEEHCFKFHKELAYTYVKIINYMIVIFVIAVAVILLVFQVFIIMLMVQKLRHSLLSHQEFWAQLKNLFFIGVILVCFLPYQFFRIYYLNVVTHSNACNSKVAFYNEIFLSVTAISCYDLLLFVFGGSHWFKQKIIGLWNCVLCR
UniProt P41279, sequence (whole entry, looked up): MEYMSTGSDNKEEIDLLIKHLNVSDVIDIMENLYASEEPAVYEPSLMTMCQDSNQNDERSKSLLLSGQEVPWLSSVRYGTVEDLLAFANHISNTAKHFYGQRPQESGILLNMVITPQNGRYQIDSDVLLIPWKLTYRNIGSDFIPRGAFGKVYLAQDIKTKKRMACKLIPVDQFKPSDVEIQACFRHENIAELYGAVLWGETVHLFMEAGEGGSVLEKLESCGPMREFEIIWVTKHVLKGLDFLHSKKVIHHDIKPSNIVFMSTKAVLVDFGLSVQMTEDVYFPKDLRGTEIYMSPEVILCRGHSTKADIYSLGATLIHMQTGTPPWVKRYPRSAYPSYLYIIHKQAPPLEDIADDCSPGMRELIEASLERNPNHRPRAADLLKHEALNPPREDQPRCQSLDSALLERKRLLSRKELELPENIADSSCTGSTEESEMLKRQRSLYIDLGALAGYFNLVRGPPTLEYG
UniProt P32245, sequence (whole entry, looked up): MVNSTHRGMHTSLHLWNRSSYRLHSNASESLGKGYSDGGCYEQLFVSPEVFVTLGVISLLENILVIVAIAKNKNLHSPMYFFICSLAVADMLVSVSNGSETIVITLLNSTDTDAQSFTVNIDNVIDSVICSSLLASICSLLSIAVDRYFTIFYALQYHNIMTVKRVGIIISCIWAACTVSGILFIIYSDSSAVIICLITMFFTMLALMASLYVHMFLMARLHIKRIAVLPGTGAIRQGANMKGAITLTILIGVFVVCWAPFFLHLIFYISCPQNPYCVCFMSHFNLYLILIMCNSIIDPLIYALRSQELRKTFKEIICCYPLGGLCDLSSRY
UniProt Q14289, sequence (whole entry, looked up): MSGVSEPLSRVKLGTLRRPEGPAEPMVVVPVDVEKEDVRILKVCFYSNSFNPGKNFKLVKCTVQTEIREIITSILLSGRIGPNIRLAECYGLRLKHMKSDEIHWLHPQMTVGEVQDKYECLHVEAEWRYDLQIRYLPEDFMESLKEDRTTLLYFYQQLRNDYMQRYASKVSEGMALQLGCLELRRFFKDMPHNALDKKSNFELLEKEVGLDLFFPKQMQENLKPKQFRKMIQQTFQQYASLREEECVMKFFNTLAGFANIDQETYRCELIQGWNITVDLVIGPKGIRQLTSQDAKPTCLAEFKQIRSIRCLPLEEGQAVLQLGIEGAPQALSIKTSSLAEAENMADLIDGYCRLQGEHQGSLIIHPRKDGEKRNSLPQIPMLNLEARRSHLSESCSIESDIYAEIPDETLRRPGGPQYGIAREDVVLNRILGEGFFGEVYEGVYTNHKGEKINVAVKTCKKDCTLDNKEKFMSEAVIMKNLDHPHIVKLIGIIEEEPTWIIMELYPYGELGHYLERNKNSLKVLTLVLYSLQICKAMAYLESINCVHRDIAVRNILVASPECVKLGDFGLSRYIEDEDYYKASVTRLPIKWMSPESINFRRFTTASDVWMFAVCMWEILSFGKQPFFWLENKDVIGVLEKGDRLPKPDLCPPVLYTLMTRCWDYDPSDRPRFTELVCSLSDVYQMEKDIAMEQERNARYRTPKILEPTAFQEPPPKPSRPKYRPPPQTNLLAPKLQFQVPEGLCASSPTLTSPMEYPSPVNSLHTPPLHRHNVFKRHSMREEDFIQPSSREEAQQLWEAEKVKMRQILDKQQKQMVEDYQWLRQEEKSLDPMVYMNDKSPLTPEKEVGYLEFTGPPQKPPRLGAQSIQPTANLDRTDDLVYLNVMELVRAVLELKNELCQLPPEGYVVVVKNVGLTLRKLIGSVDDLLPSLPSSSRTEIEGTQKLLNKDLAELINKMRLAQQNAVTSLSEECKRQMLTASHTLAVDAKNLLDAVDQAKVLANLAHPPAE
UniProt P34947, sequence (whole entry, looked up): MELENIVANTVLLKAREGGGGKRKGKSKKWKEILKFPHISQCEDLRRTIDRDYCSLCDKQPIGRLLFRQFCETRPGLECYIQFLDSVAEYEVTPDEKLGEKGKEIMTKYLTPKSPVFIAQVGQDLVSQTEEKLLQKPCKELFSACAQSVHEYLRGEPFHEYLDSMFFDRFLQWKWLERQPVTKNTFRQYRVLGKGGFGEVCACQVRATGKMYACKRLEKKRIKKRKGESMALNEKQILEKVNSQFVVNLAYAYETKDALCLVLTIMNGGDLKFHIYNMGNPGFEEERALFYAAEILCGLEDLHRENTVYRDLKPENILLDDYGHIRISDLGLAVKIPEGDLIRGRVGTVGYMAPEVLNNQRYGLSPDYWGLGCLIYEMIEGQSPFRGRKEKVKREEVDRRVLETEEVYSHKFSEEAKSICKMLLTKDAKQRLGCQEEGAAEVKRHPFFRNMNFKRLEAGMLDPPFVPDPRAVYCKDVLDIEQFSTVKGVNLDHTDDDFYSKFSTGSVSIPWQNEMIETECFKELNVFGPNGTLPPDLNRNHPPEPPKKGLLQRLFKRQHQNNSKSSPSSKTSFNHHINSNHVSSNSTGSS
UniProt Q8IU85, sequence (whole entry, looked up): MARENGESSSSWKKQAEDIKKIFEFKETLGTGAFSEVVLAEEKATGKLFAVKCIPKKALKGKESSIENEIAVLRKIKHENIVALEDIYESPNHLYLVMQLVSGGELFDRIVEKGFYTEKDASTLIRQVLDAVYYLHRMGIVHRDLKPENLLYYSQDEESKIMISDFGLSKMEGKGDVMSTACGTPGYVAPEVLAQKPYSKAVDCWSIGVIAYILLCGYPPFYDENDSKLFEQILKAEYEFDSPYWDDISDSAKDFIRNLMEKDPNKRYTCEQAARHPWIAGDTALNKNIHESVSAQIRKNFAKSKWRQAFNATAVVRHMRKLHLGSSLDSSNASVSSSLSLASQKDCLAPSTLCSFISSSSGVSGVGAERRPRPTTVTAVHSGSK
UniProt Q8NGU9, sequence (whole entry, looked up): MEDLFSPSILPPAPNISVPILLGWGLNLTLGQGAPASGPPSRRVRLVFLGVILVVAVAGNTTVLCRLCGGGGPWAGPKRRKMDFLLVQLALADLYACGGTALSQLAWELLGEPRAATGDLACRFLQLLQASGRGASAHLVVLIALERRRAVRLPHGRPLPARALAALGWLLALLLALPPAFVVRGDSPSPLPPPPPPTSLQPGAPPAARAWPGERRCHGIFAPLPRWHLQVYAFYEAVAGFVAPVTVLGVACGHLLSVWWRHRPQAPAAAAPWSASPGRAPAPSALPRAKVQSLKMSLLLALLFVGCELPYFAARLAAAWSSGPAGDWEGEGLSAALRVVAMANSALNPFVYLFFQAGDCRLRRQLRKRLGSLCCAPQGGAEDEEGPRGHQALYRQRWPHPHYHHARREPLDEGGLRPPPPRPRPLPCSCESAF

Sample 1
Compound: Cn1nc(C(=O)NCc2ccc(C(=O)O)cc2)cc1-c1ccc2[nH]ccc2c1
Effect on: cell-free assay
Method: competition with immobilised ligand
Concentration: 0.1 µM
| target | remaining binding [%] |
| --- | --- |
| CDK2 (Homo sapiens, UniProt P24941) | 91 |
| ACVR1 (Homo sapiens, UniProt Q04771) | 99 |
| DAPK3 (Homo sapiens, UniProt O43293) | 86 |
| FLT3 (Homo sapiens, UniProt P36888, ITD) | 91 |
| MAP3K19 (Homo sapiens, UniProt Q56UN5) | 85 |
| ALK (Homo sapiens, UniProt Q9UM73) | 80 |
| NTRK2 (Homo sapiens, UniProt Q16620) | 92 |
| KIT (Homo sapiens, UniProt P10721, V559D/V654A) | 95 |
| TNNI3K (Homo sapiens, UniProt Q59H18) | 100 |
| NUAK2 (Homo sapiens, UniProt Q9H093) | 87 |
| TAOK3 (Homo sapiens, UniProt Q9H2K8) | 83 |
| PIK3C2G (Homo sapiens, UniProt O75747) | 100 |
| HCK (Homo sapiens, UniProt P08631) | 81 |
| KIT (Homo sapiens, UniProt P10721, T670I/V559D) | 77 |
| TGFBR2 (Homo sapiens, UniProt P37173) | 100 |
| MAPK7 (Homo sapiens, UniProt Q13164) | 87 |
| KIT (Homo sapiens, UniProt P10721) | 97 |
| DYRK2 (Homo sapiens, UniProt Q92630) | 100 |
| PIM2 (Homo sapiens, UniProt Q9P1W9) | 81 |

Sample 2
Target: Calcium/calmodulin-dependent protein kinase type II subunit alpha (CAMK2A, Homo sapiens, UniProt Q9UQM7)
UniProt Q9UQM7, sequence (whole entry, looked up): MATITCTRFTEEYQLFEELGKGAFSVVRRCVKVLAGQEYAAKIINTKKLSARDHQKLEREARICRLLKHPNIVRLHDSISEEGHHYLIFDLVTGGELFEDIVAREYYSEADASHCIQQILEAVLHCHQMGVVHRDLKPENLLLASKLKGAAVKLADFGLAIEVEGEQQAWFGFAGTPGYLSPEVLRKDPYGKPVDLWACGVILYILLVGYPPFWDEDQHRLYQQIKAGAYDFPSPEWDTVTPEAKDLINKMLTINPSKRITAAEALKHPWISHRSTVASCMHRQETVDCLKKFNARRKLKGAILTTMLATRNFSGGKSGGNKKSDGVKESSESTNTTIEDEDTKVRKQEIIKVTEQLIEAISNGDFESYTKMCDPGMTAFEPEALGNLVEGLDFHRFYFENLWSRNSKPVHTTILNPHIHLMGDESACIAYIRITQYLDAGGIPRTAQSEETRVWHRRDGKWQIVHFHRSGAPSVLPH
Effect on: enzyme activity
Action: inhibitor
Concentration: 10 µM
| SMILES | inhibition [%] |
| --- | --- |
| O=C1O[C@H](CO)[C@@H](O)[C@H](O)[C@H]1O | -34 |
| CC(=O)N[C@@H](CCCN=C(N)N)C(=O)O | -4 |
| CSC[C@H]1O[C@@H](n2cnc3c(N)ncnc32)[C@H](O)[C@@H]1O | 9 |
| CC1(C)CC[C@]2(C(=O)O)CC[C@]3(C)C(=CC[C@@H]4[C@@]5(C)C[C@H](O)[C@H](O)[C@@](C)(C(=O)O)[C@@H]5CC[C@]43C)[C@@H]2C1 | -51 |
| CC1(C)S[C@@H]2[C@H](NC(=O)C(c3ccccc3)S(=O)(=O)O)C(=O)N2[C@H]1C(=O)O (stereo partly shown) | -3 |
| O=c1c(O)cc([C@H]2Oc3cc(O)cc(O)c3C[C@H]2O)cc2c([C@H]3Oc4cc(O)cc(O)c4C[C@H]3O)cc(O)c(O)c12 | -13 |
| O=C1[C@H](CC[C@H](O)c2ccc(F)cc2)[C@@H](c2ccc(O)cc2)N1c1ccc(F)cc1 | -10 |
| O=[N+]([O-])O[C@@H]1CO[C@H]2[C@@H]1OC[C@@H]2O | 5 |
| CN1C(=O)CC[C@H]1c1cccnc1 | 21 |
| COc1cc(O)c2c(=O)c(OC)c(-c3ccc(OC)c(O)c3)oc2c1 | 5 |
| O=Cc1ccc(CO)o1 | -12 |
| O=C(NCC(O)CO)c1c(I)c(C(=O)NCC(O)CO)c(I)c(N(CCO)C(=O)CO)c1I (stereo not shown) | -8 |
| CC[C@H](C)[C@H](N)C(=O)O | -6 |

Sample 3
SMILES: N=C(N)NC(=O)c1cnn(-c2cccc3ncccc23)c1C1CC1
Effect on: β-arrestin recruitment
Action: agonist
Method: PRESTO-Tango
Concentration: 10 µM
Reference: untreated
| target | fold over basal |
| --- | --- |
| Mas-related G-protein coupled receptor member X3 (Homo sapiens, UniProt Q96LB0) | 1.97 |
| Mas-related G-protein coupled receptor member F (MRGPRF, Homo sapiens, UniProt Q96AM1) | 0.94 |
| Trace amine-associated receptor 2 (TAAR2, Homo sapiens, UniProt Q9P1P5) | 1.11 fold |
| MC4R (Homo sapiens, UniProt P32245) | 1 |
| Probable G-protein coupled receptor 150 (GPR150, Homo sapiens, UniProt Q8NGU9) | 1.37 |
| CRHR2 (Homo sapiens, UniProt Q13324) | 1.35 |
| ADRA2C (Homo sapiens, UniProt P18825) | 1.6 |
| Probable G-protein coupled receptor 45 (GPR45, Homo sapiens, UniProt Q9Y5Y3) | 1.2 |
| S1PR5 (Homo sapiens, UniProt Q9H228) | 1.01 |
| Probable G-protein coupled receptor 141 (GPR141, Homo sapiens, UniProt Q7Z602) | 1.17 |
| Secretin receptor (SCTR, Homo sapiens, UniProt P47872) | 1.31 |
| G-protein coupled receptor 83 (GPR83, Homo sapiens, UniProt Q9NYM4) | 0.89 |
| ADRA1A (Homo sapiens, UniProt P35348) | 1.6 |

Sample 4
Structure (SMILES): O=S(=O)(NCCNC/C=C/c1ccc(Br)cc1)c1cccc2cnccc12
Effect on: enzyme activity
Action: inhibitor
Concentration: 0.5 µM
Reference: control
| target | remaining activity [%] |
| --- | --- |
| Cyclin-dependent kinase 2, with cyclin A (CDK2, Homo sapiens, UniProt P24941) | 105 |
| CAMK1G (Homo sapiens, UniProt Q96NX5) | 99.1 |
| BRSK1 (Homo sapiens, UniProt Q8TDC3) | 92 |
| CDK7 (Homo sapiens, UniProt P50613) | 82.8 |
| HIPK3 (Homo sapiens, UniProt Q9H422) | 81.7 |
| PKN2 (Homo sapiens, UniProt Q16513) | 78.9 |
| NEK9 (Homo sapiens, UniProt Q8TD19) | 99.3 |
| SLK (Homo sapiens, UniProt Q9H2G2) | 93 |
| ROS1 (Homo sapiens, UniProt P08922) | 99.6 |
| DYRK4 (Homo sapiens, UniProt Q9NR20) | 96.4 |
| MAPK10 (Homo sapiens, UniProt P53779) | 92.6 |
| NTRK3 (Homo sapiens, UniProt Q16288) | 79.6 |
| GRK5 (Homo sapiens, UniProt P34947) | 127 |
| MAP3K8 (Homo sapiens, UniProt P41279) | 99.4 |
| MAP3K2 (Homo sapiens, UniProt Q9Y2U5) | 91.5 |
| RET (Homo sapiens, UniProt P07949) | 102 |
| PRKD1 (Homo sapiens, UniProt Q15139) | 98.7 |
| CAMK1D (Homo sapiens, UniProt Q8IU85) | 85.5 |
| CSNK2A2 (Homo sapiens, UniProt P19784) | 86.6 |
| Aurora kinase A (AURKA, Homo sapiens, UniProt O14965) | 104 |
| PTK2B (Homo sapiens, UniProt Q14289) | 85 |
| DMPK (Homo sapiens, UniProt Q09013) | 96.6 |

For quick reference, copied from above (sample 1):
| target | remaining binding [%] |
| --- | --- |
| DAPK3 (Homo sapiens, UniProt O43293) | 86 |
| KIT (Homo sapiens, UniProt P10721, T670I/V559D) | 77 |
| CDK2 (Homo sapiens, UniProt P24941) | 91 |
| ACVR1 (Homo sapiens, UniProt Q04771) | 99 |
| KIT (Homo sapiens, UniProt P10721, V559D/V654A) | 95 |
| MAPK7 (Homo sapiens, UniProt Q13164) | 87 |
| ALK (Homo sapiens, UniProt Q9UM73) | 80 |
| KIT (Homo sapiens, UniProt P10721) | 97 |
| TGFBR2 (Homo sapiens, UniProt P37173) | 100 |
| NUAK2 (Homo sapiens, UniProt Q9H093) | 87 |
